# Experimental data pooled from the literature.
# Each line is one published result; not all experiments were run side by side. Several values in a cell are separate wells, animals, samples, runs or records. ± gives the spread as reported.
# FGFR1: Fibroblast growth factor receptor 1 (FGFR1, Homo sapiens, UniProt P11362)
# DDR1: Epithelial discoidin domain-containing receptor 1 (DDR1, Homo sapiens, UniProt Q08345)
# Grm5: Metabotropic glutamate receptor 5 (Grm5, Rattus norvegicus, UniProt P31424)
SMILES,target,test,system,conditions,IC50
O=C(NCCCN1CCC(Cc2ccccc2)CC1)c1cc2ccccc2[nH]1,"Sodium-dependent serotonin transporter (SLC6A4, Homo sapiens, UniProt P31645)",transporter uptake,,,240 to 920 nM
COc1cc2nccc(Oc3ccc(NC(=S)Nc4ccc(Cl)cc4F)c(Cl)c3)c2cc1C(N)=O,FGFR1,,,,9150 nM
COc1ccc2c(c1)C(=C1Nc3ccccc3C1=NOCC(O)CO)C(=O)N2 (stereo not drawn),"Tyrosine-protein kinase Lyn (LYN, Homo sapiens, UniProt P07948)","enzyme activity, inhibitor, radiometric",,,29.8 nM
CN1Cc2c(Cl)cc(Cl)cc2C(c2cccc(S(=O)(=O)NCCOCCNC(=O)C(O)C(O)C(=O)NCCOCCNS(=O)(=O)c3cccc(C4CN(C)Cc5c(Cl)cc(Cl)cc54)c3)c2)C1 (stereo not drawn),"Sodium/hydrogen exchanger 3 (Rattus norvegicus, UniProt P26433)","intracellular pH recovery, inhibitor, pH-sensitive dye","opossum kidney cells, transfected",,1580 nM
O=c1c(OCc2ccccc2)c(-c2ccco2)oc2ccccc12,β-glucosidase,"enzyme activity, inhibitor",,,390 ± 140 nM
O=C(NO)[C@H](Cc1ccc(O)cc1)n1nncc1CNS(=O)(=O)c1ccc(-c2ccccc2)s1,"Endoplasmic reticulum aminopeptidase 2 (ERAP2, Homo sapiens, UniProt Q6P179)","enzyme activity, inhibitor, fluorescence",,,3280 nM
O=C(NCCCCc1ccccc1)n1c(=O)oc2cc(-c3ccc(F)cc3)ccc21,"Acid ceramidase (ASAH1, Homo sapiens, UniProt Q13510)","cellular enzyme activity, LC-MS",SW-403,3 h,825 nM
Cc1noc(NS(=O)(=O)c2ccc(NC(=O)c3cc(-c4cccc(Cl)c4)nc4ccccc34)cc2)c1C,"Peptidyl-prolyl cis-trans isomerase A (PPIA, Homo sapiens, UniProt P62937)","enzyme activity, inhibitor",,,4880 nM
O=C(O)C(CO)NCc1cc(Cl)c(OCc2cccc(-c3ccccc3)c2Br)cc1OCc1cccnc1 (stereo not drawn),"LAG3, with MHC class II (Homo sapiens, UniProt P18627)","protein-protein interaction, inhibitor, HTRF",,,> 10000 nM
CNC(=O)C(Cc1c[nH]c2ncccc12)NC(=O)C(OC)c1ccc(Oc2ccccc2)cc1 (stereo not drawn),DDR1,cell-free assay,,,1400 nM
CCNCCN(CC)c1nc(Nc2ccc3ncoc3c2)nc(N[C@@H](C)C2CCCCC2)n1,"E3 ubiquitin-protein ligase synoviolin (SYVN1, Homo sapiens, UniProt Q86TM6)","enzyme activity, inhibitor, radiometric",,,35000 nM
Cc1cc(=O)c(O)c(CN2CCSCC2)n1C,"Tryptophan 2,3-dioxygenase (TDO2, Homo sapiens, UniProt P48775)",inhibitor,,together with: L-tryptophan 400 µM,7120 nM
CC[C@H](C)[C@H](NC(=O)[C@H](CO)NC(=O)[C@H](Cc1ccc(O)cc1)NC(=O)[C@H](CC(=O)O)NC(=O)[C@H](CO)NC(=O)[C@@H](NC(=O)[C@H](Cc1ccccc1)NC(=O)[C@@H](NC(=O)CNC(=O)[C@H](CCC(=O)O)NC(=O)[C@H](C)NC(=O)[C@@H](N)Cc1ccc(O)cc1)[C@@H](C)O)[C@@H](C)CC)C(=O)N[C@@H](C)C(=O)N[C@@H](CCSC)C(=O)N[C@@H](CC(=O)O)C(=O)N[C@@H](CCCCN)C(=O)N[C@H](C(=O)N[C@@H](CCCNC(=N)N)C(=O)N[C@@H](CCC(N)=O)C(=O)N[C@@H](CCC(N)=O)C(=O)N[C@@H](CC(=O)O)C(=O)N[C@@H](Cc1ccccc1)C(=O)N[C@H](C(=O)N[C@@H](CC(N)=O)C(=O)N[C@@H](Cc1c[nH]c2ccccc12)C(=O)N[C@@H](CC(C)C)C(=O)N[C@@H](CC(C)C)C(=O)N[C@@H](C)C(=O)N[C@@H](CCC(N)=O)C(=O)N[C@@H](CCCCN)C(=O)NCC(=O)N[C@@H](CCCCN)C(=O)N[C@@H](CCCCN)C(=O)N[C@@H](CC(N)=O)C(=O)N[C@@H](CC(=O)O)C(=O)N[C@@H](Cc1c[nH]c2ccccc12)C(=O)N[C@@H](CCCCN)C(=O)N[C@@H](Cc1c[nH]cn1)C(=O)N[C@@H](CC(N)=O)C(=O)N[C@@H](CC(C)C)C(=O)N[C@H](C(=O)N[C@@H](CCC(N)=O)C(=O)O)[C@@H](C)O)C(C)C)[C@@H](C)CC,"Gastric inhibitory polypeptide receptor (GIPR, Homo sapiens, UniProt P48546)","ligand displacement in cells, radioligand",,,1.26 nM
N#Cc1cnc(Nc2nc3ccccc3o2)nc1-c1cccc(F)c1F,Grm5,"calcium signal, antagonist",,,1910 nM
O=C1NCCc2c(Cc3ccc(Cl)cc3)[nH]c3c(OC(F)F)ccc1c23,"cGMP-specific 3',5'-cyclic phosphodiesterase (PDE5A, Homo sapiens, UniProt O76074)","enzyme activity, inhibitor",,,12 nM
NCc1cccc(C2CCN(C(=O)c3cccc(NC(=O)C(=O)C4(O)CCC4)c3)CC2)c1,"Tryptase beta-1 (Homo sapiens, UniProt Q15661)","enzyme activity, inhibitor",,"tryptase 10 pM, together with: AMC substrate",10.4 nM
CC1OC(Oc2c(-c3ccc(O)cc3)oc3cc(O)cc(O)c3c2=O)C(OC(=O)C=Cc2ccc(O)cc2)C(O)C1OC(=O)C=Cc1ccc(O)cc1 (stereo not drawn),"C-X-C chemokine receptor type 5 (CXCR5, Homo sapiens, UniProt P32302)","calcium flux, antagonist",293FT GCaMP6 transfected,,> 10000 nM
Cc1ccc(O)c(C(=O)Nc2ccc(CN)cc2)c1,"Transmembrane protease serine 11D (TMPRSS11D, Homo sapiens, UniProt O60235)","enzyme activity, inhibitor",,"15 min preincubation, together with: Boc-VPR-AMC 100 µM",2400 ± 300 nM
CC1(C)CCC(CN2CCN(c3ccc(C(=O)NS(=O)(=O)c4ccc(NCC5COCCO5)c([N+](=O)[O-])c4)c(N4CCCOc5nc6[nH]ccc6cc54)c3)CC2)=C(c2ccc(Cl)cc2)C1 (stereo not drawn),"Bcl-2-like protein 1 (BCL2L1, Homo sapiens, UniProt Q07817)",ligand displacement,,,3.76 nM
C[C@@H](O)[C@H](NC(=O)CP(=O)(O)OC[C@H]1O[C@@H](n2cnc3c(N)ncnc32)[C@H](O)[C@@H]1O)C(=O)O,"tsaD/tsaC, with TsaB and TsaE (Escherichia coli, UniProt P05852+P45748)","inhibitor, HPLC",,"pH 7.5, 23 °C, preincubation 1 min, together with: ATP 1 mM and L-threonine",1300 ± 500 nM
COc1cc2nccc(Oc3ccc(NC(=S)NCc4ccc(F)cc4)c(Cl)c3)c2cc1C(N)=O,FGFR1,,,,3610 nM
CCCN(CC(=O)N(CCC)CC(=O)N(CCC)CC(=O)N(CCC)CC(=O)N(CC(=O)N(CCC)CC(=O)N(CCC)CC(=O)N(CCC)CC(=O)N(CCC)CC(=O)N(CC(N)=O)Cc1cn(CCCNC(=O)CCCOc2cccc(-c3nc4ccc(-c5nc6ccc(N7CCN(C)CC7)cc6[nH]5)cc4[nH]3)c2)nn1)Cc1cn(CCCNC(=O)CCCOc2cccc(-c3nc4ccc(-c5nc6ccc(N7CCN(C)CC7)cc6[nH]5)cc4[nH]3)c2)nn1)C(=O)CNCc1cn(CCCNC(=O)CCCOc2cccc(-c3nc4ccc(-c5nc6ccc(N7CCN(C)CC7)cc6[nH]5)cc4[nH]3)c2)nn1,MBNL1–r(CUG)109 complex,MBNL1 displacement,,together with: bulk yeast tRNA competitor,960 ± 100 nM
N#Cc1cc(F)cc(-c2ccc3cccnc3c2)c1,Grm5,"calcium signal, antagonist",,,182 nM
CCCC[C@H](NC(C)=O)C(=O)N[C@@H](CO)C(=O)N[C@H](C(=O)N1CCC[C@H]1C(=O)N[C@]1(C)CCCCCCC=CCCC[C@@](C)(C(=O)N[C@@H](Cc2ccccc2)C(=O)N[C@@H](CCCCN)C(=O)N[C@@H](CCCNC(=N)N)C(=O)N[C@@H](CC(C)C)C(=O)N[C@@H](CCC(N)=O)C(N)=O)NC(=O)[C@H](CCCNC(=N)N)NC(=O)[C@H](CCCC)NC(=O)[C@H](CC(C)C)NC(=O)[C@H](CCCNC(=N)N)NC(=O)[C@H](CCCNC(=N)N)NC(=O)[C@H](CCCNC(=N)N)NC1=O)[C@@H](C)O,"NEDD8-activating enzyme E1 catalytic subunit, part with NAE1 (UBA3, Homo sapiens, UniProt Q8TBC4)","NEDD8 thioester transfer to UBE2M, inhibitor",,,14500 ± 5400 nM
O=C(Nc1ccc(O)c(C(=O)Nc2ccnc(C(F)(F)F)c2)c1)c1cccnc1,DDR1,"enzyme activity, inhibitor, mobility shift",,,> 30000 nM
CCCCCCc1ccc(S(=O)(=O)N2CC2C(N)=O)cc1 (stereo not drawn),"Protein disulfide-isomerase (P4HB, Homo sapiens, UniProt P07237)","enzyme activity, inhibitor, absorbance",,pH 7.6,33 nM and 30 nM
CC(=O)Nc1nnc(S(=O)(=O)CC(=O)C23CC4CC(CC(C4)C2)C3)s1,"11-beta-hydroxysteroid dehydrogenase 1 (HSD11B1, Homo sapiens, UniProt P28845)","enzyme activity in cells, inhibitor",,,309 nM
Clc1ccccc1C(NCCCn1ccnc1)(c1ccccc1)c1ccccc1,"Gap junction alpha-8 protein (Gja8, Mus musculus, UniProt P28236)","gap junction current, inhibitor, dual whole-cell voltage clamp",transfected mouse N2a cell pairs,,7300 nM
O=C(O)[C@@H]1Cc2c([nH]c3ccccc23)[C@@H](c2ccc(F)cc2F)N1,"MEP cytidylyltransferase IspD (Plasmodium falciparum, UniProt Q8I273)","enzyme activity, inhibitor, fluorimetric pyrophosphate",,60 nM enzyme,230 ± 10 nM
C=CC(=O)N1CCC(c2ccccc2)CC1,"Protein FosB, ΔFosB isoform (Fosb, Mus musculus, UniProt P13346)","ΔFOSB homodimer DNA binding, fluorescence polarization",,"15 min, together with: TMR-cdk5 oligonucleotide",> 200000 nM
